Measured values gathered from unrelated publications.
Each numbered part is a random draw from the data of one study; scales do not carry over between parts. Changes are numbered by the printed parent chain.

Sample 1
Target: Interferon regulatory factor 5, full length, phosphomimetic (IRF5, Homo sapiens, UniProt Q13568-2, residues 1-514, S451D/S453D/S456D/S462D)
Technique: protein-binding microarray
Form: double-stranded DNA, one strand shown
Sample: in vitro
Tested at: 940 nM top
Setting: 60-bp whole probe
Together with: salmon DNA 0.4 mg/ml
Reference: random background probes
Reading: higher = stronger binding
Endpoint: fitted relative affinity
GCCTAGCACGACGATCTCAGTATCTAGACGTGCTAGGTCTTGATTCGCTTGACGCTGCTG: 0.263 z-score
GCCTAGCACTCAGTCTTCACTCTGCTACTGTGCTAGGTCTTGATTCGCTTGACGCTGCTG: 0.905 z-score
GCCTAGCACGACGGACTGGATACTGGGGACGTGCTAGTCTTGATTCGCTTGACGCTGCTG: -0.5 z-score
GCCTAGCACTTAGAACTGGGGTCTGGATTAGTGCTAGTCTTGATTCGCTTGACGCTGCTG: -0.24 z-score

Sample 2
Target: RNA binding protein fox-1 homolog 2, RRM domain, GST-SBP tag (RBFOX2, Homo sapiens, UniProt O43251-10, residues 100-194)
Technique: RNA Bind-n-Seq
Form: RNA
Sample: in vitro
Tested at: 365 nM
Setting: natural RNA segment, single round, ends assumed
Reference: no-protein control
Reading: higher = stronger binding
Endpoint: RBNS enrichment (R)
Shared flanks, not repeated: GGGAGUUCUACAGUCCGACGAUC … UGGAAUUCUCGGGUGCCAA
Residues (chain): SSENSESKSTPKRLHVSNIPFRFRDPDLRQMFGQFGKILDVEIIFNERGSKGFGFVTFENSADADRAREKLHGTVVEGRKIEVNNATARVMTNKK
UGUUCCCCUCCUGUGUCCUUUUUCUCGUUCUUUCUUUCCUGUCCAGUGCAUGAUGUUUAAGGCCACAUAUAGUCCAGCUGAUGCCAAUAAUAAAAGACAAGAAACCAAGU: 1.31
UUCAGGUUUGAUGUAAGCAUGGGCUUACAUCCCCCAGGUACAUACUUUUACUUAUUGUGGGAUAACCUGGCACUAGUAGGCAGGUAAAGUCACAAAUUUGGUGUCUUUUC: 0.26
CGAAGUUAGAUUUGAACAUAGAUAAGAUAGGUUAUUCCAGUUGAGAAUAUUGUUCGAAGAAUGUCUGUGAAUGCAGACAUGGGUCCUGCUUAGUGCCAUAGGUAGACUGA: 0.305
UUAUCUUUCUCUCUGCCAUUUGGAACUUUAUUCCCUAACCCAGGUUUUGCUGCUGUGAAACAGCGUUGAUGAACACUAAAUAUUAAUCUGAGAUAGCUGGAUUGUAUAUA: 0.284
CCAAUCUUAUAUGAAUAUUUUUCAUAAAAUAGUUGUGAUUAUAUUUUUACAUCUUUUAUGCACCAAAUUAUAAUGGUCACAUAUGUUUAGCCCGUUGCCACUGUUCGGGA: 0.673

Mixed results
CCNA2: CCNA2, cyclin fold, Cln2 fusion (human)
P1: CDKN1B docking peptide (human); PSACRNLFGPVDH; partner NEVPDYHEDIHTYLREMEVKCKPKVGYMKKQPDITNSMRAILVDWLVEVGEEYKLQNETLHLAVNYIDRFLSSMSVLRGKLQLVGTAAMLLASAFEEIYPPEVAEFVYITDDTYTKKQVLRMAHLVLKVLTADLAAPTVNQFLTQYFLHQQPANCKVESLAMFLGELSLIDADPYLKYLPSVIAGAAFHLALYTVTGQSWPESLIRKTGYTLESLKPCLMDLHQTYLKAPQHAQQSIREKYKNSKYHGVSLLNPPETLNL
P1 P10H
normalised enrichment score (CCNA2; yeast growth competition, sequencing; yeast; strong parent motif; reference: not given, higher = stronger binding): 3.13

PhoQ, residues 284 288 289 292 302 303 SMMNNA
fold induction (PhoP, residues 12 14 15 18 19 NQAHL (Escherichia coli, UniProt P23836); Sort-seq, measured: YFP reporter; E. coli; PhoQ-PhoP variant library, together with: 10 µM Mg2+; reference: high Mg2+ state, higher = stronger signaling): 1.16

P1 V11W
normalised enrichment score (CCNA2; yeast growth competition, sequencing; yeast; strong parent motif; reference: not given, higher = stronger binding): 4.13

Excerpt of the above (mixed results):
PhoQ, residues 284 288 289 292 302 303 SMMNNA
fold induction (PhoP, residues 12 14 15 18 19 NQAHL (Escherichia coli, UniProt P23836); Sort-seq, measured: YFP reporter; E. coli; PhoQ-PhoP variant library, together with: 10 µM Mg2+; reference: high Mg2+ state, higher = stronger signaling): 1.16
